Results pooled from the literature.
Parts stem from different laboratories: compare values within a part only. Changes are numbered by the printed parent chain.

Sample 1
Target: Histone acetyltransferase KAT6A, winged helix 2, GST fusion (KAT6A, Homo sapiens, UniProt Q92794, residues 85-181)
Technique: protein binding microarray
Molecule type: double-stranded DNA, one strand shown
Sample: in vitro
Concentration: not given
Notes: 8-mer, flanks averaged, mean of 2 arrays, mostly near background
Relative to: not given
Direction: higher = stronger binding
Target sequence (chain): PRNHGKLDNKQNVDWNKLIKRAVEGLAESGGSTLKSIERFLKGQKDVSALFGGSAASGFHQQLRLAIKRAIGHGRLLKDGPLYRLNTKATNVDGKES
Oligonucleotide	E-score
AGTTCTCC	-0.0126
CGCTTAGC	0.157
CGTCCTAG	-0.131
AGCAAGTA	-0.0578
ATGCGAAG	0.0441

Sample 2
Target: Interferon regulatory factor 3, full length, phosphomimetic (IRF3, Homo sapiens, UniProt Q14653, residues 1-427, S386D/S396D/S398D/S402D/T404D/S405D)
Technique: protein-binding microarray
Molecule type: double-stranded DNA, one strand shown
Sample: in vitro
Concentration: 2540 nM top
Notes: 60-bp whole probe
With: salmon DNA 0.4 mg/ml
Relative to: random background probes
Direction: higher = stronger binding
All sequences stand within: GCCTAGCACT … GTGCTAGGTCTTGATTCGCTTGACGCTGCTG
Residues (chain): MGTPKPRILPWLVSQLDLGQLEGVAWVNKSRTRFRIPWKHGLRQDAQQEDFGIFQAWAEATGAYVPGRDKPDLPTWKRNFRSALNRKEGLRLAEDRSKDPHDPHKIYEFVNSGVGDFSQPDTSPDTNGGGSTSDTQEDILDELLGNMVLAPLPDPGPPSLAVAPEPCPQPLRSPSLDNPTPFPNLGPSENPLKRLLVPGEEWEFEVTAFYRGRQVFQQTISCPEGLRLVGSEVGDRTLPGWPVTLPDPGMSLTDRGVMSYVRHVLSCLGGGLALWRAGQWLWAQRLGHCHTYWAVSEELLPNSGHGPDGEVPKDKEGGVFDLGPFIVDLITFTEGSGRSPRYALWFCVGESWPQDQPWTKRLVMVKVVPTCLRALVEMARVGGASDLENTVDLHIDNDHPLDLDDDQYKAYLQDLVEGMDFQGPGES
Oligonucleotide	fitted relative affinity [z-score]
TAGGATTCCTTCTCCTTTA	5.36
GTCTGTCTGTCACCCGGAC	0.158
CATGCTTTCTTTTTGCACT	1.11
CTACTTCTGTTTTTGCTTT	0.898
TAGATATCAGACTGGATAA	0.172
GAAAATTCTAATTAGAATT	0.342
TAGGTATCCTTCTTCTTTA	7.32

Sample 3
Target: CREBRF, bZIP domain (human)
Technique: DHFR protein complementation
Sample: yeast
Notes: single substitutions, most at no-binding floor
Relative to: wild-type JUN-FOS pair
Direction: higher = stronger binding
Starting sequence: JUN, bZIP domain (human); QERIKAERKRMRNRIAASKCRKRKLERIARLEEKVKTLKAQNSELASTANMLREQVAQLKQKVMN; partner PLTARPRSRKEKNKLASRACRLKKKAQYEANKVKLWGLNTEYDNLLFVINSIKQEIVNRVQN
Substitution	binding fitness [natural log]
K34C	-1.32
K34A	-1.5
T48K	-1.4

Single results of other studies
Molecule	target	test	test system	conditions	scale	endpoint	result
PhoQ, residues 284 288 289 292 302 303 SCKMEA	PhoP, residues 12 14 15 18 19 SQCLL (Escherichia coli, UniProt P23836)	Sort-seq, measured: YFP reporter	E. coli	PhoQ-PhoP variant library, with: 10 µM Mg2+	relative to: high Mg2+ state, higher = stronger signaling	fold induction	12.2

A few entries again (sample 1):
Oligonucleotide	E-score
CGCTTAGC	0.157
